Measurements gathered from unrelated publications.
Lines come from different studies, so protocols differ. ± gives the spread as reported.
B1: UGT1A9 (Homo sapiens, UniProt O60656); chain GKLLVVPMDGSHWFTMRSVVEKLILRGHEVVVVMPEVSWQLGRSLNCTVKTYSTSYTLEDLDREFKAFAHAQWKAQVRSIYSLLMGSYNDIFDLFFSNCRSLFKDKKLVEYLKESSFDAVFLDPFDNCGLIVAKYFSLPSVVFARGILCHYLEEGAQCPAPLSYVPRILLGFSDAMTFKERVRNHIMHLEEHLLCHRFFKNALEIASEILQTPVTEYDLYSHTSIWLLRTDFVLDYPKPVMPNMIFIGGINCHQGKPLPMEFEAYINASGEHGIVVFSLGSMVSEIPEKKAMAIADALGKIPQTVLWRYTGTRPSNLANNTILVKWLPQNDLLGHPMTRAFITHAGSHGVYESICNGVPMVMMPLFGDQMDNAKRMETKGAGVTLNVLEMTSEDLENALKAVINDKSYKENIMRLSSLHKDRPVEPLDLAVFWVEFVMRHKGAPHLRPAAHDLTWYQYHSLDVIGFLLAVVLTVAFITFKCCAYGYRKCLGKKGRVKKAHKSKTH

Substance | tested on | assay | test system | setting | how to read | endpoint | result
CC(C)N(CCC1CC2CN(C(=O)Nc3ccc(Br)cc3)CC2C1)C[C@H]1O[C@@H](n2cnc3c(N)ncnc32)[C@H](O)[C@@H]1O (some centres unmarked) | human DOT1L R231Q | inhibitor, western blot, measured: H3K79me2 over histone H3 | H460 DOT1L R231Q | concentration not given | baseline: cpd over SGC0946 | H3K79me2 level ratio | 2.13
CC1=C(/C=C/C(C)=C/C=C/C(C)=C/C(=O)O)C(C)(C)CCC1 | thyroid hormone receptor, rat | reporter gene, agonist, luciferase reporter, qHTS | GH3.TRE-Luc |  |  | EC50 | < 10 µM
B1 (UGT1A9) | COc1ccccc1-c1cc(=O)c2ccc(O)cc2o1 | steady-state kinetics |  | pH 7.4, 37 °C |  | Vmax | 0.00223 µmol/min/mg
COC1(OC)CCN(CCCN(C[C@H]2O[C@@H](n3cnc4c(N)ncnc43)[C@H](O)[C@@H]2O)C2CCN(Cc3nc4cc(NC(=O)C(C)(C)C)ccc4[nH]3)CC2)CC1 | human DOT1L R231Q | inhibitor, western blot, measured: H3K79me2 over histone H3 | H460 DOT1L R231Q | concentration not given | baseline: cpd over SGC0946 | H3K79me2 level ratio | 1.02
CCCn1cnc2cc(/C=C/C(=O)NO)ccc2c1=O | histone deacetylase | enzyme activity, inhibitor | HeLa nuclear extract |  |  | IC50 | 67 ± 2 nM
Cc1nnc2sc(C(=O)NCc3ccc(S(=O)(=O)C(F)(F)F)cc3)c(N)c2c1C | off-target panel | radioligand binding |  | all targets except adenosine transporter |  | Ki | > 30 µM
CC(C)(C)C(=O)Nc1ccc(NC(=O)N2CC3CC(N(CC(=O)N4CCSCC4)C[C@H]4O[C@@H](n5cnc6c(N)ncnc65)[C@H](O)[C@@H]4O)CC3C2)cc1 (some centres unmarked) | human DOT1L R231Q | inhibitor, western blot, measured: H3K79me2 over histone H3 | H460 DOT1L R231Q | concentration not given | baseline: cpd over SGC0946 | H3K79me2 level ratio | 1.21
O=Cc1ccc(CO)o1 | NAD(P)H quinone oxidoreductase, mouse | enzyme induction, inducer | Hepa-1c1c7 | concentration doubling activity |  | CD value | 18.7 ± 2.9 µM
CCN1CCN(CCCN(C[C@H]2O[C@@H](n3cnc4c(N)ncnc43)[C@H](O)[C@@H]2O)C2CCN(Cc3nc4cc(NC(=O)C(C)(C)C)ccc4[nH]3)CC2)CC1 | human DOT1L R231Q | inhibitor, western blot, measured: H3K79me2 over histone H3 | H460 DOT1L R231Q | concentration not given | baseline: cpd over SGC0946 | H3K79me2 level ratio | 0.944
C=C[C@@]1(C)CC(=O)[C@]2(O)[C@@]3(C)[C@@H](O)CCC(C)(C)[C@@H]3[C@H](O)[C@H](OC(C)=O)[C@@]2(C)O1 | RXFP4 (human) | cAMP level, agonist | CHO-RXFP4 cells |  | approximate | EC50 | ~10 µM
COc1cc(C=O)cc(OC)c1O | UGT (rat) | 4-MU glucuronidation, inhibitor | rat kidney microsomes |  |  | lowest inhibitory concentration | ≥ 0.1 µM
O=c1ccc2ccccc2o1 | CYP2A6 human | 7-hydroxylation, substrate | human liver microsomes | CYP2A6 added 54 pmol/mg, ratio 0.125 |  | Hill coefficient | 1.57 ± 0.35
NCC(=O)COP(=O)(O)O | rhodopsin wild type-Rluc fusion | reporter gene | HEK293 | 24 h |  | EC50 | 4.2 µM
O=C(O)c1ccc(Cl)c(N2C(=O)c3ccc4c(=O)n5c6ccc([N+](=O)[O-])cc6nc5c5ccc(c3c45)C2=O)c1 | TrkA | western blot | PC-12 | 10 µM, 15 min, together with: NGF 50 pM |  | NGF-induced TrkA phosphorylation | decreased
O=Cc1ccc(O)cc1 | UGT (rat) | 4-MU glucuronidation, inhibitor | rat kidney microsomes |  |  | lowest inhibitory concentration | ≥ 1 µM
O=Cc1c(O)cc(O)cc1O[C@@H]1O[C@H](CO)[C@@H](O)[C@H](O)[C@H]1O | NAD(P)H quinone oxidoreductase, mouse | enzyme induction, inducer | Hepa-1c1c7 | concentration doubling activity |  | CD value | > 20 µM
ARYLH-OH (C-free acid) | cytochrome P450 Blt (Micromonospora sp. MW-13) | substrate, LC-MS | peptide | overnight, 30 °C, P450 0.5 µM, together with: NADH 2 mM |  | conversion to cyclic peptide | 24%
TRSSRAGLQWPVGRVHRLLRK-NH2 (C-amide) | 15 bp duplex DNA | DNA binding, near-UV circular dichroism | peptide | room temperature, together with: 1.66 µM DNA, peptide titrated |  | CD slope at 272 nm | -0.22 ± 0.016
NCC(=O)O | system A amino acid transporter, mouse | Na+-dependent uptake, substrate | Ehrlich ascites cells | 1 min, pH 7.4, together with: 107 mEq/L Na+ |  | Km | 4.1 mM
Cn1c(=O)oc2ccc(-c3ccc(C[C@@H](C#N)NC(=O)[C@@H]4CNCCCO4)cc3)cc21 | neutrophil elastase | enzyme activity, inhibitor | human, whole blood | oral, 25 mg once daily, together with: zymosan |  | steady-state inhibition | 49%

A few entries again:
Substance | tested on | assay | test system | setting | how to read | endpoint | result
CCCn1cnc2cc(/C=C/C(=O)NO)ccc2c1=O | histone deacetylase | enzyme activity, inhibitor | HeLa nuclear extract |  |  | IC50 | 67 ± 2 nM
CC1=C(/C=C/C(C)=C/C=C/C(C)=C/C(=O)O)C(C)(C)CCC1 | thyroid hormone receptor, rat | reporter gene, agonist, luciferase reporter, qHTS | GH3.TRE-Luc |  |  | EC50 | < 10 µM
COC1(OC)CCN(CCCN(C[C@H]2O[C@@H](n3cnc4c(N)ncnc43)[C@H](O)[C@@H]2O)C2CCN(Cc3nc4cc(NC(=O)C(C)(C)C)ccc4[nH]3)CC2)CC1 | human DOT1L R231Q | inhibitor, western blot, measured: H3K79me2 over histone H3 | H460 DOT1L R231Q | concentration not given | baseline: cpd over SGC0946 | H3K79me2 level ratio | 1.02
